Measured values of several laboratories.
Numbered parts are unrelated; each lists some results of a single study. Positions count from the first letter of the parent shown.

Study 1
Target: Sodium-dependent serotonin transporter (SLC6A4, Homo sapiens, UniProt P31645)
Observed: cell-free assay
Tested at: 10 µM
| SMILES | inhibition |
| --- | --- |
| CN(c1ccnc(CNc2nc(Nc3ccc4c(c3)CC(=O)N4)ncc2C(F)(F)F)n1)S(C)(=O)=O | 33.5% |
| O=C(NNS(=O)(=O)c1ccccc1)c1cc(-c2ccnnc2)ccc1F | 6.15% |
| Nc1nc(NCc2ccccc2)nc(-c2ccccc2CO)n1 | 4.96% |
| C[C@H](c1ccc(F)cc1)N(Cc1ccc(Cl)c(C(=O)O)c1)C(=O)c1cnc2ccccc2c1 | -2.63% |
| Cc1cc(Nc2nccc(C)n2)cc(-c2cnc([C@@]3(O)CC[C@H](C(=O)O)C(C)(C)C3)s2)c1 | 3.34% |
| CN1CCN(c2ccnc(NCCc3ccccc3)n2)CC1 | 35.8% |
| CN(C)CC#Cc1ccc(OCCCc2sc(N3CCc4cccc(C(=O)Nc5nc6ccccc6s5)c4C3)nc2C(=O)O)c(F)c1 | 16.4% |
| N#CC1(c2ccccn2)CCN(Cc2cc(C(=O)N3CCCC3)c(=O)n3ccccc23)CC1 | -12% |
| CN(C)c1ncnc(-c2ccc3nc(Nc4cc(CN5CCN(C(=O)CC(F)(F)F)CC5)ccn4)[nH]c3c2)c1Cl | 9.9% |
| Cn1nc(C(=O)NCc2ccc(C(=O)O)cc2)cc1-c1ccc2[nH]ccc2c1 | 5.3% |
| FC(F)(F)c1ccc2c(c1)nc(-c1cccnc1)n2C1CC1 | -5.44% |
| Cc1c(C(=O)O)cc(-c2ccc(C3CCNCC3)cc2)c2ccc(-c3ccc(C(F)(F)F)cc3)cc12 | -7.91% |
| c1ccc(N2CCN(Cc3nc4ccccc4[nH]3)CC2)nc1 | 17% |
| Cc1c(NC(=O)c2cc(C(N)=O)nc3cc(F)ccc23)c(C(F)(F)F)nn1Cc1ccc(C#N)cc1 | 0.483% |
| O=C(c1ccc(F)cc1)N1CC(COc2ccc(Br)cc2)(C(=O)O)C1 | -6.29% |

Study 2
Target: CCND3, cyclin fold, Cln2 fusion (human)
Method: yeast growth competition, sequencing
Sample: yeast
Setting: weak parent motif
Baseline: not given
Reading: higher = stronger binding
Starting sequence: viral docking peptide; KGVKRKLFAEDSS; partner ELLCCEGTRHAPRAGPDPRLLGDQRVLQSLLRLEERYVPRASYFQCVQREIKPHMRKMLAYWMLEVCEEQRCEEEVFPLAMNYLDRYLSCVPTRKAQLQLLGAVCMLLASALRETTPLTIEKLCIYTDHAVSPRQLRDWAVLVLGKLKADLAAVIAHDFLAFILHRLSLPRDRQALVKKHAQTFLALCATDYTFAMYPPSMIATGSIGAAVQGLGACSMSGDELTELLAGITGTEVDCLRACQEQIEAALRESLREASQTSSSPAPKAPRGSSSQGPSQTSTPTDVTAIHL
| Substitution | normalised enrichment score |
| --- | --- |
| R5Q | 0.0753 |
| K6N | 0.228 |
| A9W | -0.0465 |
| D11V | 0.145 |
| V3H | 0.342 |
| G2Q | 0.452 |
| F8T | 0.1 |
| R5M | -0.0795 |

Study 3
Cell line: HEK-293T-ACE2-TMPRSS2
Method: cell count
Tested at: 10 µM
| Compound | viability |
| --- | --- |
| NC(=O)C1CC(=O)N(c2ccc3c(c2)OCCO3)C1 (stereo not drawn) | 66% |
| CN(C)c1ccc(C(=C2C=CC(=[N+](C)C)C=C2)c2ccc(N(C)C)cc2)cc1 | 131% |
| Cc1ccccc1OCCCn1cc(C(=O)c2ccccc2)c2ccccc21 | 221% |

Study 4
Target: HLA class I histocompatibility antigen, A alpha chain, allele A*25:01 (Homo sapiens, UniProt P04439)
Observed: peptide-MHC binding
Molecule type: peptide
Tested at: concentration not given
| Molecule | binding |
| --- | --- |
| NLFDWMHFL | inactive |
| DTVNRTHQY | active |
| FHIVNQESL | inactive |
| ETESATLFT | inactive |
| RIEQLYPFA | inactive |
| VLLISDPGL | inactive |
| RTFSILNRK | inactive |
| GSGDDTWLI | inactive |

Further values, each from its own experiment
Cell line: HEK-293T/ACE2
Tested at: 10 µM
Time: 16 h
Baseline: vehicle
| SMILES | viability [%] |
| --- | --- |
| CC1(C)S[C@@H]2[C@H](NC(=O)Cc3ccccc3)C(=O)N2[C@H]1C(=O)O | 98.2 |
| NCC1(CC(=O)O)CCCCC1 | 102 |

Some of these lines once more (study 2):
| Substitution | normalised enrichment score |
| --- | --- |
| R5Q | 0.0753 |
| G2Q | 0.452 |
| V3H | 0.342 |
| K6N | 0.228 |
| D11V | 0.145 |
| F8T | 0.1 |
